Results pooled from the literature.
Protocols differ between the studies behind these lines. ± marks the error that the study gave.
Cell line: HepG2

Cc1ccc2nc(-c3ccccc3)c(CNc3cccc(C(F)(F)F)c3)n2c1
EC50 (cell growth or viability; 48 h): > 50 µM

Cc1ccc(Nc2ncc3c(n2)N(C)C(=O)N(c2cc(NC(=O)c4ccc(CN5CCN(C)CC5)c(C(F)(F)F)c4)ccc2C)C3)cn1
GI50 (cell growth or viability, ATP luminescence; 72 h): 1.32 µM

N#CCC(=O)NNC(=S)Nc1ccc(Cl)c(Cl)c1
mRNA level (measured: SREBP target genes; up to 100 µM, 24 h): no effect

COc1cc(COC(=O)C2C(C=O)=Cc3cc4c(cc3C2c2cc(OC)c(OC)c(OC)c2)OCO4)cc(OC)c1OC (stereo not drawn)
selectivity index (reference: CC50 HepG2 over amastigote EC50): 8.8

CSC(=NN=C(C)c1ccc(S(=O)(=O)N2CCC(C)CC2)cc1)N(C)C
cells in pre-G1 phase (flow cytometry; 3.31 µM (IC50), 72 h): 22%

O=C(O)CCNC(=O)[C@H](Cc1c[nH]cn1)NC(=O)[C@H](Cc1c[nH]cn1)NC(=O)CCNC(=O)[C@@H]1CCCN1
viability (MTT; 10 µg/mL, 6 h): 18.3%

Cc1ccc(NCC(=O)Nc2ccon2)cc1S(=O)(=O)N1CCOCC1
EC50 (cell growth or viability): > 25 µM

CCC[C@H]1CC[C@H](c2ccc(NC(=S)NC[C@@H]3[C@@H](O)[C@@H](O)[C@H]4[C@H](O)CCCN43)cc2)CC1
galectin-1 binding to cell surface (fluorescent lectin imaging; 10 µM, 48 h): decreased

CCOc1cccc2c1[O][Pt-2]1([Cl])[N+](=C2)c2ccccc2[NH+]1c1ccccc1 (stereo not drawn)
cells in G0/G1 phase (flow cytometry PI; concentration not given, 24 h): 21 to 27%

O=C(/C=C/c1ccccc1)OCCCC[P+](c1ccccc1)(c1ccccc1)c1ccccc1
therapeutic index (SRB; 48 h; reference: IC50 L02 over IC50 HepG2): 11.1

N[C@@H](Cc1c[nH]cn1)C(=O)NCCC(=O)NCCC(=O)N[C@@H](Cc1c[nH]cn1)C(=O)O
viability (MTT; 10 µg/mL, 6 h): 16.9%

O=C1/C(=C/c2ccc3c(c2)OCCO3)SC(=S)N1[C@@H]1O[C@H](CO)[C@@H](O)[C@H](O)[C@H]1O
total apoptotic cells (annexin V/PI; IC50, 48 h): 44.6%

CC(=O)O[C@@H]1CC[C@@]2(C)C(CC[C@]3(C)C2C(=O)C=C2C4[C@@H](C)[C@H](C)CC[C@]4(C)CC[C@]23C)[C@@]1(C)C(=O)N/N=C1/C(=O)Nc2ccccc21 (stereo partly drawn)
MDA level (1 µM, acetaminophen-induced injury, added: 10 mM acetaminophen): 9.6 nmol/mg

Cc1cc2nc(-c3cc4ccccc4nc3Cl)[nH]c2cc1C
protein level (western blot, measured: cyclin B1, CDK1, CDC25C; concentration not given; reference: untreated): decreased

CN(C(=NN=C(c1ccccc1)c1ccccn1)[S][Ga]([Cl])[Cl])C1CCCCC1
G2 phase cells (PI flow cytometry; 5 µM, 24 h; reference: vehicle): decreased

CSC(=S)N/N=C(\C)c1ccc(S(=O)(=O)N2CCC(C)CC2)cc1
cells in %G0-G1 (flow cytometry; 3.31 µM, 72 h): 32.6%

O=C(/C=C/c1ccc(O)c(O)c1)OCCCC[P+](c1ccccc1)(c1ccccc1)c1ccccc1
apoptotic cells (annexin V-FITC/PI flow cytometry; 20 µM, 24 h): 63.9%

Cc1c(C(=O)NNC(=S)Nc2ccc(Cl)cc2)nnn1Cc1nc2ccccc2[nH]1
early apoptotic cells (annexin V/PI; concentration not given, 24 h): 12.2%

Cc1ccc(Nc2ncc3c(n2)N(C)C(=O)N(c2cc(NC(=O)c4ccccc4)ccc2C)C3)cn1
GI50 (cell growth or viability, ATP luminescence; 72 h): 6.69 µM

Cc1ccc2nc(-c3ccccc3)c(CN3CCOCC3)n2c1
EC50 (cell growth or viability; 48 h): > 50 µM

COc1cc(/C=C/C(=O)OCCCC[P+](c2ccccc2)(c2ccccc2)c2ccccc2)ccc1O
therapeutic index (SRB; 24 h; reference: IC50 L02 over IC50 HepG2): 8.61

N[C@@H](Cc1c[nH]cn1)C(=O)NCCC(=O)N1CCC[C@H]1C(=O)NCCC(=O)N[C@@H](Cc1c[nH]cn1)C(=O)O
viability (LDH; 10 µg/mL, 6 h, 1% FBS): 61%

Cc1ccc(NCCNc2ccc(F)c(Cl)c2)cc1S(=O)(=O)N1CCOCC1
EC50 (cell growth or viability): > 25 µM

CC(=NN=c1sc(C(=O)c2ccccc2)nn1-c1ccccc1)c1ccc(S(=O)(=O)N2CCC(C)CC2)cc1
cells in %G0-G1 (flow cytometry; 3.31 µM, 72 h): 26.9%

Cc1ccc2nc(-c3ccccc3)c(CN3CCN(c4ccc(Cl)cc4)CC3)n2c1
EC50 (cell growth or viability; 48 h): > 50 µM

O=C(/C=C(O)/C=C/c1cccs1)/C=C/c1cccs1
intracellular ROS (DCFH-DA, SRB-normalized; 1 µM; reference: untreated cells): 108 ± 9.4%

CC(=O)N[C@H](C(=O)N[C@H](C(=O)N[C@@H](Cc1ccccc1)C(=O)N[C@H](C(=O)N[C@@H](CO)C(=O)N[C@@H](Cc1c[nH]c2ccccc12)C(=O)N[C@@H](CCC(=O)O)C(=O)N[C@@H](CCC(=O)O)C(=O)N[C@@H](Cc1ccc(O)cc1)C(=O)N[C@@H](CC(C)C)C(=O)N[C@@H](CC(=O)O)C(=O)N[C@@H](Cc1c[nH]c2ccccc12)C(=O)N[C@H](C(N)=O)C(C)C)[C@@H](C)O)C(C)C)[C@@H](C)O
LDL uptake restored (BODIPY-LDL uptake; 30 µM, added: 15 µg/mL PCSK9; reference: maximal without PCSK9): ~80%

Cc1ccc(NCC(=O)N2CCC(F)(F)CC2)cc1S(=O)(=O)N1CCOCC1
EC50 (cell growth or viability): > 25 µM

CC(=O)O[C@H]1CC[C@]2(C)[C@H]3C(=O)C=C4[C@@H]5C[C@@](C)(C(=O)OCc6ccccc6)CC[C@]5(C)CC[C@@]4(C)[C@]3(C)CC[C@H]2C1(C)C
MDC fluorescence intensity (autophagy, flow cytometry; 8 µM, 48 h, unit not given; reference: untreated): 2480

Cc1ccc(NCC(=O)N2CCCCC2)cc1S(=O)(=O)N1CCOCC1
EC50 (cell growth or viability): > 25 µM

Cc1ccc2nc(-c3ccccc3)c(CN3CCCC3)n2c1
EC50 (cell growth or viability; 48 h): > 50 µM

Cc1ccc(Nc2ncc3c(n2)N(C)C(=O)N(c2cc(NC(=O)c4cc(N5CCC(O)CC5)cc(C(F)(F)F)c4)ccc2C)C3)cn1
GI50 (cell growth or viability, ATP luminescence; 72 h): 0.743 µM

Cc1ccc(NCC(=O)Nc2ccc(F)c(Cl)c2)cc1S(=O)(=O)N1CC2CCC(C1)O2
EC50 (cell growth or viability): > 25 µM

C=C1C(=O)C23CCC4C(C)(C)CCCC4(C)C2C(O)CC1C3 (single isomer, unassigned)
protein level (western blot, measured: cleaved caspase-9 and caspase-3; concentration not given): increased

CC(=O)O[C@@H]1CC[C@@]2(C)C(CC[C@]3(C)C2C(=O)C=C2C4[C@@H](C)[C@H](C)CC[C@]4(C)CC[C@]23C)[C@@]1(C)C(=O)OCC(=O)Oc1cc(C)ccc1C(C)C (stereo partly drawn)
SOD activity (measured: superoxide dismutase; 10 µM, added: acetaminophen 10 mM): 73 U/mg

O=C(CNc1ccc(F)c(S(=O)(=O)N2CCOCC2)c1)Nc1ccc(F)c(Cl)c1
EC50 (cell growth or viability): > 25 µM

OC(CN1CCC2(CC1)CC(O)c1ccc3ccccc3c1O2)c1ccc(F)c(F)c1 (stereo not drawn)
EC50 (cytotoxicity, MTS; 48 h): 19 µM

Cc1ccc2nc(-c3ccccc3)c(CN3CCN(c4cccc(Cl)c4Cl)CC3)n2c1
EC50 (cell growth or viability; 48 h): > 50 µM

Cc1ccc(NCC(=O)Nc2cccc(Cl)c2)cc1S(=O)(=O)N1CCOCC1
EC50 (cell growth or viability): > 25 µM

For quick reference, copied from above:
Cc1ccc(NCC(=O)Nc2ccon2)cc1S(=O)(=O)N1CCOCC1
EC50 (cell growth or viability): > 25 µM

CCC[C@H]1CC[C@H](c2ccc(NC(=S)NC[C@@H]3[C@@H](O)[C@@H](O)[C@H]4[C@H](O)CCCN43)cc2)CC1
galectin-1 binding to cell surface (fluorescent lectin imaging; 10 µM, 48 h): decreased

CCOc1cccc2c1[O][Pt-2]1([Cl])[N+](=C2)c2ccccc2[NH+]1c1ccccc1 (stereo not drawn)
cells in G0/G1 phase (flow cytometry PI; concentration not given, 24 h): 21 to 27%

O=C(/C=C/c1ccccc1)OCCCC[P+](c1ccccc1)(c1ccccc1)c1ccccc1
therapeutic index (SRB; 48 h; reference: IC50 L02 over IC50 HepG2): 11.1

N[C@@H](Cc1c[nH]cn1)C(=O)NCCC(=O)NCCC(=O)N[C@@H](Cc1c[nH]cn1)C(=O)O
viability (MTT; 10 µg/mL, 6 h): 16.9%
